Measurements pooled from the literature.
Parts stem from different laboratories: compare values within a part only. Positions count from the first letter of the parent shown.

Study 1 — technique: universal PBM; form: double-stranded DNA, one strand shown; medium: in vitro; tested at: not given; direction: higher = stronger binding
Target: Sal-like protein 4, full length isoform B (SALL4, Homo sapiens, UniProt Q9UJQ4-2, residues 1-616)
Notes: 8-mer, flanks averaged, mean of replicates
Construct (chain): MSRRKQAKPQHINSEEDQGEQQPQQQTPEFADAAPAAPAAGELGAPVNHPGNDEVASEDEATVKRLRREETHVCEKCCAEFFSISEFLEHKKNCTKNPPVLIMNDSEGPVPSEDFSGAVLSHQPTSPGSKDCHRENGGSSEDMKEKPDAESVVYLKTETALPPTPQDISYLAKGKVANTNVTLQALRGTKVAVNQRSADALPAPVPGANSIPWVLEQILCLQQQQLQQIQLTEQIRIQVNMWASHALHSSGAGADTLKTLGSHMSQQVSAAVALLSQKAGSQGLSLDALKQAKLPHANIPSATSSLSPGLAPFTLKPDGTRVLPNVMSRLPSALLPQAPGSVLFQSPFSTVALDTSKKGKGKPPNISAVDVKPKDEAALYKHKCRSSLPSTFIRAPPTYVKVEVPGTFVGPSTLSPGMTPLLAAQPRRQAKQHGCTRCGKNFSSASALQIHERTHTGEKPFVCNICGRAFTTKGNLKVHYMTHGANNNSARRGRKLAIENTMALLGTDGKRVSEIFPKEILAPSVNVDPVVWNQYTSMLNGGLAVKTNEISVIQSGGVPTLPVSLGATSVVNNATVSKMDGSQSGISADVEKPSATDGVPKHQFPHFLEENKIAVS
| Oligonucleotide | E-score |
| --- | --- |
| CCCAAACC | -0.183 |
| CCGACCCA | -0.191 |
| CAAAATGA | 0.256 |
| CACTGTGG | -0.238 |
| TATCGTGA | 0.0258 |
| AGGAGACC | -0.232 |
| GACCGCTA | -0.172 |
| AATCAGCT | 0.0603 |
| CGGCTATA | -0.0143 |
| ACTTACAC | 0.113 |
| CTAGTGTA | 0.116 |
| CATCTCTC | -0.0984 |
| GTGCCGTA | -0.0396 |
| CCGTGACA | -0.0552 |
| CGGCGGAC | -0.319 |
| AAGAACGT | 0.149 |
| ACCGAGCC | -0.303 |

Study 2 — technique: DHFR PCA, deep sequencing; medium: yeast; with: (+)-ABA 0.032 µM; relative to: wild-type fitted maximum; direction: higher = stronger binding
Target: ABI1, truncated, D143A, DHFR fusion (Arabidopsis thaliana)
Notes: methotrexate growth selection, single substitutions
Starting sequence: PYL1, truncated, DHFR fusion (Arabidopsis thaliana); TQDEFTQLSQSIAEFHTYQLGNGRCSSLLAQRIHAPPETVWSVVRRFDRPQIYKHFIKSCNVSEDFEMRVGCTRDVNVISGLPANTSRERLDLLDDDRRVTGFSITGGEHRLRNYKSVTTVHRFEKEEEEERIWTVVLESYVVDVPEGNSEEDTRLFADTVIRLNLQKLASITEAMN; partner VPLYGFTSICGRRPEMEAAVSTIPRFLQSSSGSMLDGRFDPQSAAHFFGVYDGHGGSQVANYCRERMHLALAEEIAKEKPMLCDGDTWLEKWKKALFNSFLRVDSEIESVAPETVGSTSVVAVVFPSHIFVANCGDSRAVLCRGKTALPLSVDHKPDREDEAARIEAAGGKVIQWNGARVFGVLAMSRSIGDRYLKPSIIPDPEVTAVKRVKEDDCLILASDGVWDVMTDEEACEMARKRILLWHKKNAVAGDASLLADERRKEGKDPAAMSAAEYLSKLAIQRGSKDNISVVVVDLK
| Substitution | relative binding score [%] |
| --- | --- |
| K116P | -4.97 |
| G108E | 0.196 |
| G107C | 7.66 |
| Y53R | -0.188 |
| M68V | 6.43 |
| A170E | -3.4 |
| L91N | 3.93 |
| E127D | 38.4 |
| G71M | -2.94 |
| R113M | 25.3 |
| N149F | 4.15 |
| F124D | 2.39 |
| S171M | 31.1 |

Study 3 — target: CCNF, cyclin fold, Cln2 fusion (human); technique: yeast growth competition, sequencing; medium: yeast; notes: strong parent motif; relative to: not given; direction: higher = stronger binding
Starting sequence: RBL1 docking peptide (human); GSAKRRLFGEDPP; partner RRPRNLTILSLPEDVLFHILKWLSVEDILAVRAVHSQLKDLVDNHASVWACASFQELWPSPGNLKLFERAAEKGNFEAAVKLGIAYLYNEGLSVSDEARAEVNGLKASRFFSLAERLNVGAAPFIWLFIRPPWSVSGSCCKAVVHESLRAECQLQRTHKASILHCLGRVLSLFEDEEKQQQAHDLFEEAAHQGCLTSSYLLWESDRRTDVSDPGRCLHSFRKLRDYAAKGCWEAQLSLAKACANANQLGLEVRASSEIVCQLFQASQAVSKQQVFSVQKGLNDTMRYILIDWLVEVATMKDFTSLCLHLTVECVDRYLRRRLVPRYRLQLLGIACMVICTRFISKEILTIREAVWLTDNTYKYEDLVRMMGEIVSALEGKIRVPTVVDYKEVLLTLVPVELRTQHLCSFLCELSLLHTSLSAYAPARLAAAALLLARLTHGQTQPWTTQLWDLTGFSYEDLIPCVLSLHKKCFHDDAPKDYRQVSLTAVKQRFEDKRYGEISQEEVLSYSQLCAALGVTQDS
| Substitution | normalised enrichment score |
| --- | --- |
| E10R | 6.46 |
| R5K F8L | 0.285 |
| A3S | 3.55 |
| F8P | 1.27 |
| K4I | 5.86 |
| K4Y | 5.53 |
| R6P | -0.0547 |
| R6N | 5.85 |
| G1W | 8.24 |
| A3L | 4.86 |
| S2I | 5.46 |
| E10M | 6.6 |
| G9I | 8.77 |
| E10D | 7.3 |
| R6Y | 2.91 |
| P13S | 6.65 |
| S2W | 5.77 |
| P13E | 6.64 |
| G9H | 6.92 |

Further values, each from its own experiment
| Molecule | target | assay | system | conditions | scale | quantity | value |
| --- | --- | --- | --- | --- | --- | --- | --- |
| PhoQ, residues 284 288 289 292 302 303 ALAMYF | PhoP, residues 12 14 15 18 19 LHSVQ (Escherichia coli, UniProt P23836) | Sort-seq, refers to: YFP reporter | E. coli | PhoQ-PhoP variant library, with: 10 µM Mg2+ | relative to: high Mg2+ state, higher = stronger signaling | fold induction | 19.2 |
